Measurements pooled from the literature.
Lines come from different studies, so protocols differ. Several values in a cell are separate wells, animals, samples, runs or records. ± gives the spread as reported.

Compound | test | system | setting | Cmax
CCn1c(=O)c(-c2cc(NC(=O)Nc3ccccc3)c(F)cc2Br)cc2cnc(NC)cc21 | – | human, plasma | oral, 150 mg once daily, steady state | 728 ng/mL
COc1cc(N2CCC(N3CCN(C)CC3)CC2)ccc1Nc1ncnc(Nc2ccccc2S(=O)(=O)C(C)C)n1 | – | human, plasma | oral, 200 mg, day 28 | 667 ng/mL
Cc1nc(-c2ccc(OCC(C)C)c(C#N)c2)sc1C(=O)O | – | human | oral, 20 mg once daily, together with: verinurad 0 mg | 537 ng/mL
Cc1cn(C(=O)c2c(-c3c(Cl)cc(Cl)cc3Cl)noc2C(C)(C)F)c2cccc(/C=C/C(=O)O)c12 | – | human patients | 1000 mg bid, cycle 1 day 1 | 27100 ng/mL
COc1ccc2[nH]c([S@+]([O-])Cc3ncc(CO)c(OC)c3C)nc2c1 | – | human, dried plasma spots | 5 mg racemic omeprazole, together with: rifampicin pretreatment | 22 nM
Cc1cc(Nc2ccc(S(F)(F)(F)(F)F)cc2)n2nc(C(C)(F)F)nc2n1 | LC-MS/MS | human vivax malaria patients, plasma | oral, 600 mg, mean | 8440 ng/mL
Cn1nnc2c(C(N)=O)ncn2c1=O | – | human patients, plasma | oral, 20 mg/m2, day 5, dose level DL2, median, together with: talazoparib 400 µg/m2 | 570 ng/mL
Cl.[2H]C([2H])([2H])CC(=O)c1cnc(NC(=O)C2CC2)cc1Nc1cccc(-c2ncn(C([2H])([2H])[2H])n2)c1OC | geometric mean | human | oral, 100 mg single dose, fasted, liquid | 949 ng/mL
N#Cc1cc(NC(=O)[C@H]2c3ccccc3C(=O)N(CC(F)(F)F)[C@@H]2c2cccnc2)ccc1F | – | human, plasma | oral, 600 mg, median | 1470 ng/mL
Cc1cc(C)c(CNC(=O)c2cc(Cl)c3c(c2C)O[C@@](C)([C@H]2CC[C@H](N(C)C)CC2)O3)c(=O)[nH]1 | mean | healthy male humans, plasma | oral, 25 mg, day 1, alone, itraconazole group | 115 ng/mL
C[C@@H](Cn1ccc(-c2ccc(C#N)c(Cl)c2)n1)NC(=O)c1cc([C@@H](C)O)[nH]n1 | – | human, fasted, plasma | oral, 300 mg 14C-darolutamide solution, geometric mean | 1800 ng/mL
COc1cc2ncnc(Nc3ccc(F)c(Cl)c3)c2cc1NC(=O)/C=C/CN1CCCCC1 | – | human, mild hepatic impairment (NCI), plasma | single dose, geometric mean, total drug | 12 ng/mL
Nc1ccn([C@@H]2O[C@H](CO)[C@@H](O)C2(F)F)c(=O)n1 | HPLC-UV | human, plasma | intravenous, 1000 mg/m^2, median, after paricalcitol | 8530 ng/mL
NC1(C(=O)N[C@@H](CCO)c2ccc(Cl)cc2)CCN(c2ncnc3[nH]ccc23)CC1 | – | human, plasma | 800 mg twice daily, day 2, 2 days on, 5 days off | 3860 ng/mL
CCN(CCO)CCCC(C)Nc1ccnc2cc(Cl)ccc12 (centres unmarked) | – | human patient, whole blood | oral, 400 mg, steady state | 1950 ng/mL and 1050 ng/mL and 1340 ng/mL and 1270 ng/mL and 921 ng/mL and 1180 ng/mL and 1450 ng/mL
CCNCCCNC/C=C\CNCCCNCC | LC-MS/MS | human cancer patients, plasma | intravenous infusion 60 min, 150 mg, median, cycle 1 | 512 ng/mL
CNC(=O)c1cc(Oc2ccc(NC(=O)Nc3ccc(Cl)c(C(F)(F)F)c3)cc2)ccn1 | – | human, plasma | oral, 400 mg daily, median, dose level -1, together with: carboplatin AUC 3, gemcitabine 650 mg/m2 | 4700 ng/mL
C[C@H](CCC(=O)NCC(=O)O)[C@H]1CC[C@H]2[C@@H]3[C@H](O)C[C@@H]4C[C@H](O)CC[C@]4(C)[C@H]3CC[C@]12C | – | human, plasma | concentration not given, endogenous control diurnal | 1680 ± 207 nM
CO[C@@H]1[C@H](OC(=O)N2CC(CCN3CCOCC3)C2)CC[C@]2(CO2)[C@H]1[C@@]1(C)O[C@@H]1CC=C(C)C | – | humans, plasma | subcutaneous, 1.8 mg twice weekly, first dose | 8.38 ± 4.23 ng/mL
CC(=O)O[C@H]1C(=O)[C@@]2(C)[C@H]([C@H](OC(=O)c3ccccc3)[C@]3(O)C[C@H](OC(=O)[C@H](O)[C@@H](NC(=O)c4ccccc4)c4ccccc4)C(C)=C1C3(C)C)[C@]1(OC(C)=O)CO[C@@H]1C[C@@H]2O | noncompartmental analysis | human cancer patients, plasma | intravenous infusion, 80 mg/m^2, cycle 1 day 1, together with: daily oral co-medication | 2230 ng/mL

Excerpt of the above:
Compound | test | system | setting | Cmax
Cc1cc(Nc2ccc(S(F)(F)(F)(F)F)cc2)n2nc(C(C)(F)F)nc2n1 | LC-MS/MS | human vivax malaria patients, plasma | oral, 600 mg, mean | 8440 ng/mL
CNC(=O)c1cc(Oc2ccc(NC(=O)Nc3ccc(Cl)c(C(F)(F)F)c3)cc2)ccn1 | – | human, plasma | oral, 400 mg daily, median, dose level -1, together with: carboplatin AUC 3, gemcitabine 650 mg/m2 | 4700 ng/mL
